Assay results from different studies.
Compare with care: the assays were run in different laboratories. Values joined by “and” are separate records of one study, mostly repeats; a detail may differ. Numbers after ± are the reported error.
Gria2: Glutamate receptor 2 (Gria2, Rattus norvegicus, UniProt P19491)
CASP7: Caspase-7 (CASP7, Homo sapiens, UniProt P55210)
T1: riboswitch RNA U42C; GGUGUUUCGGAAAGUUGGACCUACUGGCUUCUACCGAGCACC
T2: G-quadruplex DNA, G-quadruplex (Homo sapiens); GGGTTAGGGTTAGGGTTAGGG

Cc1ccc(-c2c[nH]nc2C(=O)Nc2cccnc2)c(C)c1 — number of kinases hit (human kinase panel; binding, KINOMEscan; 10000 nM, %Ctrl below 35): 1
CC(=O)N(Cc1ccccc1)[C@@H](C)C(=O)N(C)[C@@H](C)C(=O)N(Cc1c[nH]c2ccccc12)[C@@H](C)C(=O)N(C)[C@@H](C)C(=O)N(CCC(C)C)[C@@H](C)C(=O)N1CCNCC1 — Hill coefficient (MDM2 (Homo sapiens, UniProt Q00987); binding, fluorescence polarization competition; with: fluorescent PMI peptide): 0.96 ± 0.05
NC[C@H]1O[C@H](O[C@H]2[C@H](O)[C@@H](O[C@H]3O[C@H](CO)[C@@H](O)[C@H](N)[C@H]3O)[C@H](N)C[C@@H]2N)[C@H](N)C[C@@H]1O — binding (T1, riboswitch RNA U42C; 1H NMR titration; with: KCl 50 mM): binds
O=C(Nc1cccc(N2CCOCC2)c1)c1cc(-c2ccccc2)n(-c2ccccc2)n1 — inhibition (Genome polyprotein, NS2B-NS3 protease (dengue virus type 2, UniProt P29990); enzyme activity, fluorogenic AMC substrate; 50 µM): 59%
CCOC(=O)[C@](CC)(CCCSCCOCCOCCNC(=O)OC(C)(C)C)NC(=O)c1ccc(C2CC2)c(Cc2ccc(F)cc2)n1 — selectivity ratio (CNR2 (Homo sapiens, UniProt P34972); cAMP level; with: forskolin; baseline: hCB1 over hCB2): ≥ 577 fold
N#CN1CC[C@H](C(=O)Nc2nc3c(s2)CN(C(=O)Cn2cc(COCCOCCOCCOCCNC(=O)CCCC[C@@H]4SC[C@@H]5NC(=O)N[C@@H]54)nn2)CC3)C1 — iBAQ abundance (TUBB (Homo sapiens, UniProt P07437); probe binding, affinity probe, neutravidin pull-down LC-MS/MS; HEK293T, cell lysate; 5 µM, 1 h, mean of three replicates, unit not given; higher = more pulled down): 1.16e+08
C#CCCC1(CCC(=O)NCC2CN(CCCCCNC(=O)CN(CCN)C(=O)Cn3cnc4c(=O)[nH]c(N)nc43)CCN(CCCCCNC(=O)CN(CCN)C(=O)Cn3cnc4c(=O)[nH]c(N)nc43)CCN(CCCCCNC(=O)CN(CCN)C(=O)Cn3cnc4c(=O)[nH]c(N)nc43)CCN2CCCCCNC(=O)CN(CCN)C(=O)Cn2cnc3c(=O)[nH]c(N)nc32)N=N1 (stereo not drawn) — change in melting temperature (T2, G-quadruplex DNA, G-quadruplex (Homo sapiens); FRET melting): 17.9 °C
COC(=O)Cc1cc2c(cc1C(=O)c1ccc(Cl)cc1Cl)OCO2 — desensitization time constant (Gria2; glutamate-evoked current, whole-cell patch clamp; HEK-293T; concentration not given, weighted tau, 500 ms pulse, with: glutamate): 1.7 ± 0.1 ms
CC(C)Oc1cc(Cl)ccc1CNc1cc(-c2ccccc2)nc2ncnn12 — cAMP luminescence (GPR3 (Homo sapiens, UniProt P46089, L136A); cAMP level, cAMP GloSensor; 3 µM; higher = more cAMP): 35100 a.u. and 24900 a.u. and 30600 a.u. and 36200 a.u.
CCCCCC(O)/C=C/C=O (stereo not drawn) — isoTOP-ABPP competition ratio (MTHFD1L (Homo sapiens, UniProt Q6UB35); competitive isoTOP-ABPP; proteome, soluble, MDA-MB-231; 100 µM, 60 min, with: iodoacetamide probe; baseline: DMSO over compound-treated, higher = stronger cysteine blockade): 3
O=C(O)Cc1cc2c(cc1C(=O)c1ccccc1I)OCO2 — current amplitude (Gria2; glutamate-evoked current, whole-cell patch clamp; HEK-293T; concentration not given): 504 ± 32 pA
CC(=O)N[C@@H](CC(C)C)C(=O)N[C@H](C(=O)N[C@@H](Cc1ccc(O)cc1)C(=O)N[C@@H](CC(=O)O)C(=O)COC(=O)c1c(C)cccc1C)C(C)(C)C — kinact/KI (CASP7; enzyme activity, inhibitor): 600 M⁻¹ s⁻¹
C/C=C/C(=O)Nc1ccc2nc(NCCCCCN(C)C)nc(NCCCCCCN(C)C)c2c1 — inhibition (BCDIN3D (Homo sapiens, UniProt Q7Z5W3); enzyme activity, inhibitor, radiometric; 10 µM): 53%
CC(=O)N[C@@H](CC(=O)O)C(=O)N[C@@H](CO)C(=O)N[C@H](C(=O)N[C@@H](CC(=O)O)C(=O)COC(=O)c1c(C)cccc1C)C(C)C — kinact/KI (CASP7; enzyme activity, inhibitor): 517000 M⁻¹ s⁻¹
C=CC(=O)N1CCCC(n2c(=O)c3ncccc3n(Cc3ccc(Oc4ccccc4)cc3)c2=O)C1 (stereo not drawn) — melting temperature (CLIC1 (Homo sapiens, UniProt O00299); thermal proteome profiling; cell proteome; treated): 54.6 °C and 51.7 °C

For quick reference, copied from above:
C/C=C/C(=O)Nc1ccc2nc(NCCCCCN(C)C)nc(NCCCCCCN(C)C)c2c1 — inhibition (BCDIN3D (Homo sapiens, UniProt Q7Z5W3); enzyme activity, inhibitor, radiometric; 10 µM): 53%
CC(=O)N[C@@H](CC(=O)O)C(=O)N[C@@H](CO)C(=O)N[C@H](C(=O)N[C@@H](CC(=O)O)C(=O)COC(=O)c1c(C)cccc1C)C(C)C — kinact/KI (CASP7; enzyme activity, inhibitor): 517000 M⁻¹ s⁻¹
